Published values from different studies.
A part holds a random share of what one study measured.

Study 1
Target: Interferon regulatory factor 3, full length, phosphomimetic (IRF3, Homo sapiens, UniProt Q14653, residues 1-427, S386D/S396D/S398D/S402D/T404D/S405D)
Method: protein-binding microarray
Form: double-stranded DNA, one strand shown
Matrix: in vitro
Tested at: 2540 nM top
Notes: 60-bp whole probe
With: salmon DNA 0.4 mg/ml
Relative to: random background probes
Reading: higher = stronger binding
Construct (chain): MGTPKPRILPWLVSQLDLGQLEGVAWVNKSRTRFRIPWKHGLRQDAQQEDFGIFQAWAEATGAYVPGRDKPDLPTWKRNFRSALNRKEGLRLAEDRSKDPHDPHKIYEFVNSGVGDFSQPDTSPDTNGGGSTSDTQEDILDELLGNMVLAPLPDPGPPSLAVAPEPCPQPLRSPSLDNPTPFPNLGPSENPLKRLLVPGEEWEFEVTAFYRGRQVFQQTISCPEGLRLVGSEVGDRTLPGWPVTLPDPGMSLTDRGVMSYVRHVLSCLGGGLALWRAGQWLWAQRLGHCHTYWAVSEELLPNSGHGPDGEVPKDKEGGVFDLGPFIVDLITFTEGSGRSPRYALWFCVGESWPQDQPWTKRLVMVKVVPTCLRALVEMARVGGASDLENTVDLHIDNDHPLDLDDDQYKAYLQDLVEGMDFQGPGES
Under “fitted relative affinity”, `GCCTAGCACTCACTCATGGCTTTGTAACTGTGCTAGGTCTTGATTCGCTTGACGCTGCTG` is recorded as -0.608 z-score.
For `GCCTAGCACGACGGACTGCTTCTCCTGATGTGCTAGGTCTTGATTCGCTTGACGCTGCTG`, “fitted relative affinity” read -0.498 z-score.
`GCCTAGCACGACGAACTGAGTTTCGATACGTGCTAGGTCTTGATTCGCTTGACGCTGCTG` — result for “fitted relative affinity”: 3.09 z-score.
`GCCTAGCACTTAGGAGTGGGGACTGGGTTAGTGCTAGTCTTGATTCGCTTGACGCTGCTG`: “fitted relative affinity” -1.04 z-score.

Study 2
Target: Histone acetyltransferase KAT6A, both winged helices, GST fusion (KAT6A, Homo sapiens, UniProt Q92794, residues 1-181)
Method: protein binding microarray
Form: double-stranded DNA, one strand shown
Matrix: in vitro
Tested at: not given
Notes: 8-mer, flanks averaged, mean of 2 arrays, mostly near background
Relative to: not given
Reading: higher = stronger binding
Residues (chain): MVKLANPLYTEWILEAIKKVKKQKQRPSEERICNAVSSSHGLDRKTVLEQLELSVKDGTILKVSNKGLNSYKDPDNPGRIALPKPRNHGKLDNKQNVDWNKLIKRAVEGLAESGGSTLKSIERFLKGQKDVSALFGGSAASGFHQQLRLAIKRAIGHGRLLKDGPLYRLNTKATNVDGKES
The E-score of `GTATTTGA` is reported as -0.0857.
`ATGTCACA` has an E-score of 0.00611.
For `AATTTGAT`, the E-score was -0.127.
The E-score of `CGTACGAA` is reported as 0.121.
The E-score of `GACAAGTC` is reported as -0.0885.
The E-score of `GCAAAAAA` is reported as 0.00436.

Study 3
Target: Protein C-ets-1 (ETS1, Homo sapiens, UniProt P14921, residues 1-441, K379A, full length assumed)
Method: protein-binding microarray
Form: double-stranded DNA, one strand shown
Matrix: in vitro
Tested at: not given
Notes: k-mer, scored over probes, only values ≥0.25
Reading: higher = stronger binding
Residues (chain): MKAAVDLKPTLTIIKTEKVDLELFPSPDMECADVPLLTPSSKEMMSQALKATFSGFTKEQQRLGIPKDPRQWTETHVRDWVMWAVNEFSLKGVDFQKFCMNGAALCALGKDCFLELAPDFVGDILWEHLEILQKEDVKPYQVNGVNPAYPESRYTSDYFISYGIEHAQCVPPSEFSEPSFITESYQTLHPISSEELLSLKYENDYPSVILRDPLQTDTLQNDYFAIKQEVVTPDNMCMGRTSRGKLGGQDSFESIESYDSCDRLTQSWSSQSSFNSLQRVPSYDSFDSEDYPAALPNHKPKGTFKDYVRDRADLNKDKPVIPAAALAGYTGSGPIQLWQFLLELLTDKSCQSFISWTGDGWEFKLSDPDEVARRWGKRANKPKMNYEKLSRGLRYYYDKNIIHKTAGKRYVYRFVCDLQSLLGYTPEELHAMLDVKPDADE
For `CGGTATGA`, the E-score was 0.264.
`GCACATAA` has an E-score of 0.265.
The E-score of `ATCCGGAA` is reported as 0.336.
With `TACCGGGA` the E-score was 0.427.
`CCGACACA` gave an E-score of 0.264.

Single results of other studies
`PhoQ, residues 284 288 289 292 302 303 NLMGRA` gave a fold induction of 15.3 (PhoP, residues 12 14 15 18 19 AGCRL (Escherichia coli, UniProt P23836); Sort-seq, measured: YFP reporter; E. coli; PhoQ-PhoP variant library, with: 10 µM Mg2+; relative to: high Mg2+ state, higher = stronger signaling).

Some of these lines once more (study 1):
`GCCTAGCACTTAGGAGTGGGGACTGGGTTAGTGCTAGTCTTGATTCGCTTGACGCTGCTG`: “fitted relative affinity” -1.04 z-score.
